{"data": "Results from different studies", "target": "Serine/threonine-protein kinase MRCK beta (CDC42BPB, Homo sapiens, UniProt Q9Y5S2)", "note": "Protocols differ between the studies behind these lines. “And” joins repeats or separate records; there may be more than shown."}
{"SMILES": "Cc1cccc(O[C@H]2CCC[C@@H](C(C)CNCc3ccncc3)C2)c1 (relative stereo)", "assay": "enzyme activity, inhibitor", "conditions": "1 µM", "endpoint": "inhibition", "result": "4%"}
{"SMILES": "N[C@H]1CC[C@H](Nc2nccc(-c3cccnc3Oc3ccc(NC(=O)NC4CC4)c4ccccc34)n2)CC1", "assay": "kinobead competition pulldown", "test system": "HEK293/HCT116 lysate mixture", "conditions": "10 µM, 1 h, 4 °C", "scale": "lower = stronger competition", "endpoint": "log2 LFQ intensity", "result": "22.4 and 22.2 and 22.3 and 21.7"}
{"SMILES": "Nc1ncc2c(n1)-c1c([nH]c3ccc(C4=CCOCC4)cc13)CCC2", "assay": "binding, competition with immobilised ligand", "conditions": "1 µM", "endpoint": "remaining binding", "result": "90%"}
{"SMILES": "COCC12C(=O)NC3C4(C(OC)CC1O)C1CC5(O)C(OC)C(O)C(OC(C)=O)(C1C5OC(=O)c1ccccc1)C3(O)C(OC)C24 (stereo not shown)", "assay": "kinase activity, inhibitor, ProQinase kinase profiling", "conditions": "25 µM", "scale": "baseline: control", "endpoint": "remaining activity", "result": "96% and 110%"}
{"SMILES": "C=CC(=O)N1CCCC(n2c(=O)c3ncccc3n(Cc3ccc(Oc4ccccc4)cc3)c2=O)C1 (stereo not shown)", "assay": "cell-free assay, competition with immobilised ligand", "conditions": "1 µM", "endpoint": "remaining binding", "result": "97%"}
{"SMILES": "CCN1CCN(Cc2ccc(C(=O)Nc3ccc(C)c(NCc4cnc5[nH]ccc5c4OC)c3)cc2C(F)(F)F)CC1", "assay": "binding, competition with immobilised ligand", "conditions": "1 µM", "endpoint": "remaining binding", "result": "100%"}
{"SMILES": "COc1c(Cl)cccc1Nc1c(-c2ccncc2C#C[C@@]2(C)CCCN2C(=O)/C=C/CN(C)C)[nH]c2c1C(=O)NCC2", "assay": "cell-free assay, competition with immobilised ligand", "conditions": "3 µM", "endpoint": "remaining binding", "result": "84%"}
{"SMILES": "CNC(=O)C[C@H](Cc1ccc(C#N)cc1)NC(=O)c1cc(-c2ccc(CN[C@H](C)c3ccc(C)cc3)o2)ccc1Cl", "assay": "enzyme activity, inhibitor", "conditions": "1 µM", "endpoint": "activity vs control", "result": "103%"}
{"SMILES": "CN1CC[C@@H](COc2cnc(C#N)cc2-c2ccn3nc(NC(=O)C4CC4)cc3c2)C1", "assay": "inhibitor, KinaseProfiler panel", "conditions": "1 µM", "endpoint": "inhibition", "result": "-5%"}
{"SMILES": "NC(=O)[C@@H](O)C[C@H]1CCc2sc3ncnc(O[C@H]4CC[C@H](N5CCOCC5)CC4)c3c21", "assay": "enzyme activity, inhibitor", "conditions": "10 µM", "endpoint": "inhibition", "result": "3%"}
{"SMILES": "CNC(=O)C1CCN(c2cc(C)c(F)cc2NC(=O)c2ccc(-c3cc(O)ccc3C)c(C)c2)CC1", "assay": "binding, competition with immobilised ligand", "conditions": "1 µM", "endpoint": "remaining binding", "result": "100%"}
{"SMILES": "Cc1ccc(-c2c(/C=C(\\C#N)C(=O)NC(C)C)n(CCCO)c3ncnc(N)c23)cc1", "assay": "cell-free assay, competition with immobilised ligand", "conditions": "1 µM", "endpoint": "remaining binding", "result": "96%"}
{"SMILES": "C=CC(=O)Nc1cccc(-c2cnc3[nH]cc(C(=O)NC(C)(C)C)c3n2)c1", "assay": "enzyme activity, inhibitor", "conditions": "0.1 µM", "endpoint": "inhibition", "result": "13%"}
{"SMILES": "C=CC(=O)Nc1cc(-c2nn(C3CCN(CCNC(=O)[C@H](C)CCC45CC6CC(CC(C6)C4)C5)CC3)c3ncnc(N)c23)ccc1Oc1ccccc1", "assay": "inhibitor, KiNativ profiling", "test system": "biochemical", "conditions": "2 µM", "endpoint": "inhibition", "result": "1.8%"}
{"SMILES": "Nc1ncc(-c2cc(-c3cnn(CC(F)(F)F)c3)ncc2F)nc1C(=O)NC1CNCC(F)C1 (stereo not shown)", "assay": "enzyme activity", "conditions": "1 µM", "scale": "baseline: DMSO control", "endpoint": "remaining activity", "result": "104%"}
{"SMILES": "CNC1C[S+]2CC[S+]3CC[S+](C1)[Ru-4]321([N]=C=S)[n]2c3ccc(OC)cc3c3c4c(c5cc(F)c[n+]1c5c32)C(=O)NC4=O (stereo not shown)", "assay": "KinomeScan", "conditions": "0.1 µM", "scale": "baseline: untreated", "endpoint": "remaining binding", "result": "100%"}
